{"data": "Experimental data of several laboratories", "CHRM1": "Muscarinic acetylcholine receptor M1 (CHRM1, Homo sapiens, UniProt P11229)", "T1": "G-quadruplex DNAzyme, parallel; GGGTAGGGCGGGTTGGG", "T2": "c-di-GMP riboswitch (Clostridium acetobutylicum); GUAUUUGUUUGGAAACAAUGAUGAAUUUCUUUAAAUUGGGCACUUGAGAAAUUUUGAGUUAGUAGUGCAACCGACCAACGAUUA", "note": "Protocols differ between the studies behind these lines. ± gives the spread as reported.", "UniProt P11229, sequence (whole entry, looked up)": "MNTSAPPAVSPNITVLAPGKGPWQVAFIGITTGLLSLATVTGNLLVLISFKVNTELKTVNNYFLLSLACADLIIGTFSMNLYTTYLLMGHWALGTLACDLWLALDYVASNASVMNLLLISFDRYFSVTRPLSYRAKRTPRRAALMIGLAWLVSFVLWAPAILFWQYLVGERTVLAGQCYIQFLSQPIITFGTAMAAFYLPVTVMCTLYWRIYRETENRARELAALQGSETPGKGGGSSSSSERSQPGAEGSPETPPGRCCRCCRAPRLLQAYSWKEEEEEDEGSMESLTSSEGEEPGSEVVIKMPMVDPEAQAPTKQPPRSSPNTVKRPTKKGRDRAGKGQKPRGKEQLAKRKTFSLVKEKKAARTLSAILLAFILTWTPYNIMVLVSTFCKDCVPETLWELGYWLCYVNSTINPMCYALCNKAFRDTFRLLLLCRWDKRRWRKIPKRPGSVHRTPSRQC", "UniProt P41143, sequence (whole entry, unmodified, looked up)": "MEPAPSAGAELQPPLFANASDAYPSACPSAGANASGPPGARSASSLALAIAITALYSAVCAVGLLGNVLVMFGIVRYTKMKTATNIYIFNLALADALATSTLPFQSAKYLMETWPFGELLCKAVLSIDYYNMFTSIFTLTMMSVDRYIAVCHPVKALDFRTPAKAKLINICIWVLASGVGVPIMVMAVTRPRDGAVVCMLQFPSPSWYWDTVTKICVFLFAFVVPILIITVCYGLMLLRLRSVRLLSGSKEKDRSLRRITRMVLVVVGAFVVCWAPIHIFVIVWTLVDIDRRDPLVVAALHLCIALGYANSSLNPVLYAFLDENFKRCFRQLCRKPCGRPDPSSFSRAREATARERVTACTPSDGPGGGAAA", "UniProt Q8WTS6, sequence (whole entry, looked up)": "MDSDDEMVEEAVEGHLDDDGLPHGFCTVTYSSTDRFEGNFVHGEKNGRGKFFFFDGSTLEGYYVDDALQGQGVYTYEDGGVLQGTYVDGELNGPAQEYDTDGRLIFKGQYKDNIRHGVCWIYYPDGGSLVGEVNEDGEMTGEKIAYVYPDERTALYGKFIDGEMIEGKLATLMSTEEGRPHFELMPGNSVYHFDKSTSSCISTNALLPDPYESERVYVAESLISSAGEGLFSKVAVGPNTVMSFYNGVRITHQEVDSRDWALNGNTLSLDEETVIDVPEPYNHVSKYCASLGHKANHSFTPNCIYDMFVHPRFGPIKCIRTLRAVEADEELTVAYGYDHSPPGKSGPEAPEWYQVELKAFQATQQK", "UniProt Q9Y5Y9, sequence (whole entry, looked up)": "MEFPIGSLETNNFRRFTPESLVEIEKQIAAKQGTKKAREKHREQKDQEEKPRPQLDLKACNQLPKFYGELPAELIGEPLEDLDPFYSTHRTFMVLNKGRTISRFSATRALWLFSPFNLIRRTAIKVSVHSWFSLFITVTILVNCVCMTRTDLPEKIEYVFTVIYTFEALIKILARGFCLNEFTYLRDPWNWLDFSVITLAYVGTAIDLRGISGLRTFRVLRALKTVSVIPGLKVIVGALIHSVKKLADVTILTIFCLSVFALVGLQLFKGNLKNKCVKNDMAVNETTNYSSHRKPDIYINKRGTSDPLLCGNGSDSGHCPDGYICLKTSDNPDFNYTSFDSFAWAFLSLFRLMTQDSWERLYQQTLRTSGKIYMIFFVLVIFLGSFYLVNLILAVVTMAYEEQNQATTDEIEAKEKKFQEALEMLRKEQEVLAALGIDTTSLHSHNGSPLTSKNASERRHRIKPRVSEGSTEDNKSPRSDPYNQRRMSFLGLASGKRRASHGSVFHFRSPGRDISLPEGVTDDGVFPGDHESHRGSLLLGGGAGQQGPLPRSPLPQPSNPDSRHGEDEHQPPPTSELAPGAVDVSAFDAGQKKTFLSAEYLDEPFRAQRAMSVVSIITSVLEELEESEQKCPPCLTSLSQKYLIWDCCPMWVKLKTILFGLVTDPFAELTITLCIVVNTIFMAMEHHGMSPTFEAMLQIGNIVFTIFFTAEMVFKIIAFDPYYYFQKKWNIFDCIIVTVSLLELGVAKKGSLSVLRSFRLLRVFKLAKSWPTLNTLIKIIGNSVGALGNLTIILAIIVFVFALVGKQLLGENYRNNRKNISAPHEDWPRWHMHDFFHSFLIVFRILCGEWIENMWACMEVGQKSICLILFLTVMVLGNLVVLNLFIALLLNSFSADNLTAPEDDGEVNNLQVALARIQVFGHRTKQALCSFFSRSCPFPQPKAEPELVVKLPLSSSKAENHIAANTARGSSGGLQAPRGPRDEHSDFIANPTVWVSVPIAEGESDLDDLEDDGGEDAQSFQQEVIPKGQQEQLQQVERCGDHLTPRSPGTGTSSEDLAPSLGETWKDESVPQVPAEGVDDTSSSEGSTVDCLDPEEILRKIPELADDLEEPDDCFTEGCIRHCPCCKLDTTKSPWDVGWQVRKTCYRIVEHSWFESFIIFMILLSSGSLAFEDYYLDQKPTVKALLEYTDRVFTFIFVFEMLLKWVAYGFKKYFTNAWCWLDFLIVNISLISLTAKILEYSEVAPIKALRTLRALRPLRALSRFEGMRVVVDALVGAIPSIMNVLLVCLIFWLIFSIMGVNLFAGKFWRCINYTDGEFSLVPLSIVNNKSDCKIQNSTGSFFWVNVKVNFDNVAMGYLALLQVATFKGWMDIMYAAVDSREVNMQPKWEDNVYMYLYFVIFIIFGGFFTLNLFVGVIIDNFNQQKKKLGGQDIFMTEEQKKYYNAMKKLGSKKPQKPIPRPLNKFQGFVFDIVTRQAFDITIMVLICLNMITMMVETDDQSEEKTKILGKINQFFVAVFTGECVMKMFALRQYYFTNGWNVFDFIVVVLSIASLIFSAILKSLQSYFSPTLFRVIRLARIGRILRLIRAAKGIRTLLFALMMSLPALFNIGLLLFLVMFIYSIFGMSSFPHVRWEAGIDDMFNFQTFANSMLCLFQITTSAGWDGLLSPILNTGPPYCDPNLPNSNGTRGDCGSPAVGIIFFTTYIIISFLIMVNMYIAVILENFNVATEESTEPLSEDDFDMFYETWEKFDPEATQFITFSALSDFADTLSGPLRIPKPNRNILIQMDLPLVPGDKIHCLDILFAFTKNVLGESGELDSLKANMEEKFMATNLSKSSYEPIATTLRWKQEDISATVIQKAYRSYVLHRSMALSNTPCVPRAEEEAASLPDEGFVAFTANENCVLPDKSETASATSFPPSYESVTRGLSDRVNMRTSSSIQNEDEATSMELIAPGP", "UniProt P08173, sequence (whole entry, looked up)": "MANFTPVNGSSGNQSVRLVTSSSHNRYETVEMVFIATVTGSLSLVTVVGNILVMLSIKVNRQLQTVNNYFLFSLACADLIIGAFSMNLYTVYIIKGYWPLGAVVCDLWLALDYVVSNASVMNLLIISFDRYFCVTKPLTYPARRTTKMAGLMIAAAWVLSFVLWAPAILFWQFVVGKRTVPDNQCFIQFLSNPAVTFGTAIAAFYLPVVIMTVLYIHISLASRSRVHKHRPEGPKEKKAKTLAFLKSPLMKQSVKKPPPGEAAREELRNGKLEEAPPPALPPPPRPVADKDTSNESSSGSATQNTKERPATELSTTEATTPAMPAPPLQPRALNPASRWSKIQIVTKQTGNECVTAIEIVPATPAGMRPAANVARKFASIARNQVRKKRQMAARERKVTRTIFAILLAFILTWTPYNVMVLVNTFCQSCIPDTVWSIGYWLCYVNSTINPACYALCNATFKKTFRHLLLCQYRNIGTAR", "UniProt P00813, sequence (whole entry, looked up)": "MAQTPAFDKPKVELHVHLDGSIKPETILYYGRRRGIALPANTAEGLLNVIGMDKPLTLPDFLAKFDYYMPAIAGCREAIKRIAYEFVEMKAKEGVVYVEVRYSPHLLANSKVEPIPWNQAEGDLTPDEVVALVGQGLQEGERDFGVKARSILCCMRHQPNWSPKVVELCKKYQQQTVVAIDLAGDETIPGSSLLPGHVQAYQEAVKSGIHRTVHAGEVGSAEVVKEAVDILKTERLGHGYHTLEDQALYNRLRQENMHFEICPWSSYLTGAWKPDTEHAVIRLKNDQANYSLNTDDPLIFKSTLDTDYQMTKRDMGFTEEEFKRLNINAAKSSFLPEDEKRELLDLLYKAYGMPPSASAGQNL", "UniProt Q21974, sequence (whole entry, unmodified, looked up)": "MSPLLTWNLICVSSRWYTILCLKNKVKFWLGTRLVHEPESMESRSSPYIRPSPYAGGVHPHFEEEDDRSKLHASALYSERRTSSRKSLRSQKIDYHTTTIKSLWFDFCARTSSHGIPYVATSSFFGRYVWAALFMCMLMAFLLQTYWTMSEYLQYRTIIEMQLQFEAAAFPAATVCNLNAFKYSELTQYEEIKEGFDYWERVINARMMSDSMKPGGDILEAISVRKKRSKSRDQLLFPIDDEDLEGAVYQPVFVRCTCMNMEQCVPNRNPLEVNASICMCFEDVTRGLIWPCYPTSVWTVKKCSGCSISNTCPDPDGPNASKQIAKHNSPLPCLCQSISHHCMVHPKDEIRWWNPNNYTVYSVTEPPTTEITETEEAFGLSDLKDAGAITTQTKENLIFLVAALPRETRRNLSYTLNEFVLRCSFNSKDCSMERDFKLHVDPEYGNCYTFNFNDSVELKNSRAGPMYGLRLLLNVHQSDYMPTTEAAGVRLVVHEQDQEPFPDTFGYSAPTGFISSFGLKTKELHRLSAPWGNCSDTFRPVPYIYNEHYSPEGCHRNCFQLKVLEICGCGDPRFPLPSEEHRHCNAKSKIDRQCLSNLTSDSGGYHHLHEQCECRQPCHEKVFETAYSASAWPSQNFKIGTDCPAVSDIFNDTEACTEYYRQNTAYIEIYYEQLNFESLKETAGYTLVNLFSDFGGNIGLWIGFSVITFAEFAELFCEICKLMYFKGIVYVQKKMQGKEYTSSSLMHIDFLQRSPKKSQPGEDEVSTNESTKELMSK"}
{"Molecule": "O=c1cc(-c2ccccc2OCc2ccc(-c3nccs3)cc2)ncn1C1CCCCC1O (centres unmarked)", "target": "CHRM1", "test": "allosteric agonist, IP1 accumulation", "test system": "CHO-M1 cells", "setting": "1 µM, unit not given", "how to read": "baseline: maximum ACh response", "measurement": "change in baseline activity", "value": "5.3 ± 3.6"}
{"Molecule": "ARTKQTARKSTGG", "target": "SETD7 (Homo sapiens, UniProt Q8WTS6)", "test": "peptide methylation, substrate, MALDI-TOF MS", "test system": "peptide", "setting": "10 µM, 3 h, pH 8.0, 37 °C, enzyme 500 nM, added: SAM 30 µM", "measurement": "methylation conversion", "value": "~82%"}
{"Molecule": "C=CC(C)(C)c1cc2cc(-c3ccc(O)cc3O)c(=O)oc2cc1O", "target": "quinone reductase", "test": "inducer", "test system": "Hepa1c1c7", "measurement": "concentration doubling activity", "value": "13.3 µM"}
{"Molecule": "COC(=O)c1scc(C)c1NC(=O)C(C)N1CCN(c2ccccc2)CC1 (centres unmarked)", "target": "SCN10A (Homo sapiens, UniProt Q9Y5Y9)", "test": "cell membrane chromatography", "how to read": "higher = stronger binding", "measurement": "capacity factor k′", "value": 45}
{"Molecule": "N=C(N)NC(=O)c1nc(Cl)c(N)nc1N", "target": "unc-8 (Caenorhabditis elegans, UniProt Q21974, G387E)", "test": "ion current, two-electrode voltage clamp", "test system": "Xenopus oocytes coexpressing MEC-2", "setting": "30 µM, -85 mV", "how to read": "baseline: uninjected oocytes, positive = inhibition", "measurement": "current change", "value": "0.22 µA"}
{"Molecule": "Cn1cc(-c2ccc(COc3ccccc3-c3cc(=O)n(C4CCCCC4O)cn3)c(F)c2)cn1 (centres unmarked)", "target": "CHRM1", "test": "positive allosteric modulator, IP1 accumulation", "test system": "CHO-M1 cells", "setting": "10 µM, 60 min, 37 °C, added: ACh", "how to read": "baseline: ACh alone, higher = stronger potentiation", "measurement": "ΔpEC50 of ACh", "value": "0.69 ± 0.62 log units"}
{"Molecule": "Oc1ccc(/C=C/c2cccc(O)c2)cc1", "target": "OPRD1 (Homo sapiens, UniProt P41143)", "test": "ligand, radioligand binding", "setting": "10 µM, 60 min, added: [3H]enkephalin", "how to read": "negative = increased radioligand binding", "measurement": "binding", "value": "64.2%"}
{"Molecule": "CCNC(=O)c1ccc(COc2ccccc2-c2cc(=O)n(C3CCCCC3O)cn2)cc1 (centres unmarked)", "target": "CHRM1", "test": "allosteric agonist, IP1 accumulation", "test system": "CHO-M1 cells", "setting": "1 µM, unit not given", "how to read": "baseline: maximum ACh response", "measurement": "change in baseline activity", "value": "87.1 ± 2.8"}
{"Molecule": "C=CC1=C(C)C2=Cc3c(C=C)c(C)c4[n]3[Fe]([Cl])[n]3c(c(C)c(CCC(=O)O)c3=CC3=NC(=C4)C(C)=C3CCC(=O)O)=CC1=N2", "target": "T1, G-quadruplex DNAzyme, parallel", "test": "Soret absorption titration", "setting": "pH 5.1, 25 °C, K+ 10 mM", "measurement": "Kd", "value": "36 nM"}
{"Molecule": "Nc1nc2c(ncn2[C@@H]2O[C@@H]3COP(=O)(O)O[C@H]4[C@@H](F)[C@H](n5cnc6c(=O)[nH]c(N)nc65)O[C@@H]4COP(=O)(O)O[C@H]3[C@H]2F)c(=O)[nH]1", "target": "T2, c-di-GMP riboswitch (Clostridium acetobutylicum)", "test": "competitor, competition gel-shift", "setting": "4-24 h, pH 6.8, 22 °C, added: radiolabelled c-di-GMP", "measurement": "Kd", "value": "5.8 nM"}
{"Molecule": "O=c1cc(-c2ccccc2OCc2ccccc2)ncn1C1CCCCC1O (centres unmarked)", "target": "CHRM1", "test": "allosteric agonist, IP1 accumulation", "test system": "CHO-M1 cells", "setting": "10 µM, unit not given", "how to read": "baseline: maximum ACh response", "measurement": "change in baseline activity", "value": "54.6 ± 1.9"}
{"Molecule": "Fc1ccc2[nH]ccc2c1", "target": "Dehaloperoxidase B, ferric (Amphitrite ornata, UniProt Q9NAV7)", "test": "substrate, HPLC", "test system": "5% methanol", "setting": "5 min, pH 7, 25 °C, enzyme 10 µM, added: H2O2 500 µM", "measurement": "conversion", "value": "26%"}
{"Molecule": "COc1ccc(C)c2sc(NS(=O)(=O)c3ccc4occc4c3)nc12", "target": "CHRM4 (Homo sapiens, UniProt P08173)", "test": "calcium mobilization, positive allosteric modulator", "test system": "CHO expressing hM4 and Gqi5", "setting": "concentration not given, added: acetylcholine EC20", "measurement": "activity", "value": "inactive"}
{"Molecule": "Nc1ncnc2c1ncn2[C@@H]1O[C@H](CO)C[C@H]1O", "target": "Adenosine deaminase (Homo sapiens, UniProt P00813)", "test": "substrate", "test system": "HEK293 expressing ADA1, cell homogenate", "setting": "37 °C", "measurement": "Vmax", "value": "45.8 nmol/min/mg"}
